Measured values collected from several papers.
Protocols differ between the studies behind these lines. Several values in a cell are separate wells, animals, samples, runs or records. ± marks the error that the study gave.

SMILES | target or system | test | test system | setting | scale | endpoint | result
C#CCN(C)[C@H](C)Cc1ccccc1 |  | passive avoidance acquisition | APP/PS1 mice | oral, 10 mg/kg, 72 h, 3 days treatment |  | step-through latency | 33.5 ± 7.61 s
CC(C)C[C@H](CN)CC(=O)O |  | visual analogue scale | healthy male subjects, capsaicin-treated skin | 150 mg | reference: placebo | VAS pain difference | -9.9%
COc1ccc2c3c1O[C@H]1C(=O)CC[C@@]4(O)[C@@H](C2)N(C)CC[C@]314 |  |  | mouse, carrageenan-induced heat allodynia | ip, 1 mg/kg, 10 min before test, 3 h after 1% carrageenan intraplantar |  | paw withdrawal threshold | 48 ± 1.1 °C
C#CCN(C)[C@H](C)Cc1ccccc1 |  | footprint test | MPTP-induced Parkinson's disease mouse model | 10 mg/kg, trial 1 |  | corridor crossing time | 4.19 s and 4.53 s and 5.62 s and 6.18 s and 5.84 s and 6.88 s and 5.57 s and 6.24 s
C[C@@H]1CC[C@H]2[C@@H](C)C(=O)O[C@@H]3O[C@@]4(C)CC[C@@H]1[C@]32OO4 | Plasmodium falciparum |  | Dd2 |  |  | IC50 | 30 nM
CNC1(c2ccccc2Cl)CCCCC1=O (racemic) |  | forced swim test | BALB/cJ mice | intraperitoneal, 10 mg/kg single, 24 h | reference: vehicle | immobility duration | decreased
CNC(C)Cc1ccc2c(c1)OCO2 (stereo not shown) |  | measured: body temperature | TAAR1 knock-out mice | i.p., 25 mg/kg, together with: methamphetamine 3 mg/kg | reference: time point -5 | time to significant hyperthermia | 15 min
OC(CN1CCC(Cc2ccc(F)cc2)CC1)c1ccc(Cl)cc1 (stereo not shown) | Plasmodium falciparum |  | 7G8 |  |  | IC50 | 398 nM
COc1cc(CCN)ccc1O |  | binding, MIDAS equilibrium dialysis LC-MS | A2AR-BRIL thermostabilized | concentration not given | reference: no-protein control | log2 fold change | 0.0891
CN[C@@H](C)Cc1ccccc1 |  | measured: body temperature | TAAR1 knock-out mice | i.p., 3 mg/kg, together with: MDMA 25 mg/kg | reference: time point -5 | time to significant hyperthermia | 30 min

Some of these lines once more:
SMILES | target or system | test | test system | setting | scale | endpoint | result
CC(C)C[C@H](CN)CC(=O)O |  | visual analogue scale | healthy male subjects, capsaicin-treated skin | 150 mg | reference: placebo | VAS pain difference | -9.9%
COc1ccc2c3c1O[C@H]1C(=O)CC[C@@]4(O)[C@@H](C2)N(C)CC[C@]314 |  |  | mouse, carrageenan-induced heat allodynia | ip, 1 mg/kg, 10 min before test, 3 h after 1% carrageenan intraplantar |  | paw withdrawal threshold | 48 ± 1.1 °C
